Published values pooled from the literature.
Each numbered part is a random draw from the data of one study; scales do not carry over between parts.

Series 1
Target: Histone acetyltransferase KAT6A, winged helix 2, GST fusion (KAT6A, Homo sapiens, UniProt Q92794, residues 85-181)
Method: protein binding microarray
Form: double-stranded DNA, one strand shown
Matrix: in vitro
Tested at: not given
Notes: 8-mer, flanks averaged, mean of 2 arrays, mostly near background
Baseline: not given
Reading: higher = stronger binding
Target sequence (chain): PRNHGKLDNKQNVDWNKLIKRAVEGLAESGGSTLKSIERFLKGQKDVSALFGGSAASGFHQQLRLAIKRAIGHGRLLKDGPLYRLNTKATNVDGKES
| Oligonucleotide | E-score |
| --- | --- |
| TCTGCGAA | 0.0468 |
| GGTGTACA | -0.228 |
| AGTAATTA | -0.051 |
| CGCTGAGC | -0.00602 |
| CTTCAAAC | 0.0805 |
| ATTCGGCC | 0.103 |
| ACAGCTCG | 0.0941 |
| ATTTCAAG | -0.0713 |
| CCACCCGG | 0.19 |
| AGCGCTGG | 0.0806 |
| CGGCCCCG | 0.145 |
| GGATATCA | 0.112 |
| CTTCGACC | 0.116 |
| GCGGGCCC | 0.0935 |
| ATATCACG | -0.136 |
| AAGCGGGA | 0.208 |
| ATGACAAT | 0.0733 |
| TTAGCTAA | 0.00547 |
| GACATAAA | -0.0982 |
| AACGTTCC | -0.252 |
| AAAGATCA | 0.0747 |
| CAATCCGC | 0.116 |
| CTAGTACC | -0.108 |
| ATGACGTA | -0.0524 |
| AAGTGACT | -0.181 |

Series 2
Target: RING finger protein unkempt homolog, zinc fingers 1-6, GST-SBP tag (UNK, Homo sapiens, UniProt Q9C0B0, residues 30-357)
Method: RNA Bind-n-Seq
Form: RNA
Matrix: in vitro
Tested at: not given
Notes: RNA with constant flanks, human-mouse chimeric sites, ends assumed
Baseline: input RNA pool
Reading: higher = stronger binding
Constant ends, left off below: GGGAGUUCUACAGUCCGACGAUC … CAACAGAGGAUUGAGCAUCA
Construct (chain): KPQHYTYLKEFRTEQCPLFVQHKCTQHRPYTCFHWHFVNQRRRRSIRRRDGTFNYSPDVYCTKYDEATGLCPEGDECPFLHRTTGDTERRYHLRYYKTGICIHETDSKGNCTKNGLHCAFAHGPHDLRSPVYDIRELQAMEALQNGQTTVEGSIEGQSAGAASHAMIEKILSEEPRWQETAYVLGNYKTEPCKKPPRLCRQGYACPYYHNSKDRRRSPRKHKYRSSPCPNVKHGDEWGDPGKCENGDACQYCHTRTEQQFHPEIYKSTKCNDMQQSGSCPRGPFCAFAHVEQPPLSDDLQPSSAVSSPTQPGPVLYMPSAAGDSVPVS
| Oligonucleotide | bound/input enrichment [ratio] |
| --- | --- |
| UGGCGCCUGCGCUCCCCGUUUUUAAAUUUAAGUGUAUUUUUAUAAGAUACAUGUAUUUACAAUUGAGUUUUUGAUUAAUAAUGCUGAAAUGCUACUGGAGAUUAUGAAAAAUGUUUCAAU | 0.747 |
| GGUGGGGUGGUCAUUGCCGUUUGAGCUGCUGAUUUUCUUAUGAAUCAUUCAAAACUCUCGUGUAGGGUUGACAAUGUGGGGGGGUGGGGGAUCCAGCUAUUUUUUUUAUUUUCAAGUCCA | 2.36 |
| CCCUCCCCGGGCCACCCGCCCGCCCAAGCUCCCCGCCGAGAUCCAGGUUUCUUCUUAUUUCAUAGCAAAUAAGAAAAAUGUUCUACGCACAUUUUGUCCUCAGUAAACGAGGGCCUCUGG | 0.68 |
| CUGAGGAUACCACUGAAGAGACCUUAAAAGAAUCAUUUGAGGGCUCUGUUCGUGCAAAGGAUAGUUACUGACCGGGAACUGGUUCUUCCAAAGGGUUUGGUUUUGUAGACUUUAAUAGUG | 0.848 |
| ACACAAUAUGAGACCAACAGCUUGGACUUCAAAGUUGGGGCAGAUGGGACAGUCUUCGCCACCCGGGAGCUGCAGGUCCCCUCAGAGCAGGUGGCGUUCACGGUGACUGCAUGGGACAGC | 0.212 |
| UCGGAUGCUGUGCUGGGUCACUUUUCAUAUCCAGAUCCUUCACAGUGGACAGAUGAAGAAUUAGGUAUCCCUCCUGAUGACGAGGACUGACACUGUAGACUCAGCCUACGAGUAGGAGCA | 0.394 |
| GGACAUCUGUCAAAUUGUUAUGUUCCUGUGAAACAAGUGAACACUCUGAUACACUUCAUCUGCUUGUACAUCUGUAUUUGUAUAAUACAGAAAUCUAUUAAUCCAAGCAAUGUGUCACUU | 0.134 |
| AACUUUGUGCAUCGGUUUCCCUUUGUAGCUGUUUCAAUUGGCUUCCUUGUGAAUAAAAAGAUAGAAUUUGGAAUUGUGUACAGCUGUGUGGAAGAUAAGAUGUACACCGGCAGGAAAGGG | 4.56 |
| CGCAGAAGAUUAAAGGGUGAGAGUGGGGUGGAAGACUGUGUCAUGGCUCUGGAGACACUGUUCAGUGUCCUGCUUUCUCUGUGCAGACUGAUGGCCCCUUACACGCCCUUUCUGACUGAG | 0.0557 |
| AAAGUGAUGACUAUGUUUGUCCAACGACAGGUAUUUUCGGAGAGCAAAGAUGAGAUUGCGUUAGUCCUCUAUGGCACAGAUGGCACUGACAAUCCCCUUGCUGGCAAGGAUCAGUAUCAG | 0.17 |
| CUGGCACUCUAUCAGAUAUAUUAAUUUUUUAAUGUAGAUGUAAUUUUAAAAAUGAAUGGCUACUUUACACGUUUAACUAGGGUUUUACUACAUAUGUGUACAUAUGUAUAUAUAUAUAUA | 5.85 |

Series 3
Target: Sal-like protein 4, full length isoform A (SALL4, Homo sapiens, UniProt Q9UJQ4, residues 1-1053)
Chain of UniProt Q9UJQ4 (whole entry, looked up): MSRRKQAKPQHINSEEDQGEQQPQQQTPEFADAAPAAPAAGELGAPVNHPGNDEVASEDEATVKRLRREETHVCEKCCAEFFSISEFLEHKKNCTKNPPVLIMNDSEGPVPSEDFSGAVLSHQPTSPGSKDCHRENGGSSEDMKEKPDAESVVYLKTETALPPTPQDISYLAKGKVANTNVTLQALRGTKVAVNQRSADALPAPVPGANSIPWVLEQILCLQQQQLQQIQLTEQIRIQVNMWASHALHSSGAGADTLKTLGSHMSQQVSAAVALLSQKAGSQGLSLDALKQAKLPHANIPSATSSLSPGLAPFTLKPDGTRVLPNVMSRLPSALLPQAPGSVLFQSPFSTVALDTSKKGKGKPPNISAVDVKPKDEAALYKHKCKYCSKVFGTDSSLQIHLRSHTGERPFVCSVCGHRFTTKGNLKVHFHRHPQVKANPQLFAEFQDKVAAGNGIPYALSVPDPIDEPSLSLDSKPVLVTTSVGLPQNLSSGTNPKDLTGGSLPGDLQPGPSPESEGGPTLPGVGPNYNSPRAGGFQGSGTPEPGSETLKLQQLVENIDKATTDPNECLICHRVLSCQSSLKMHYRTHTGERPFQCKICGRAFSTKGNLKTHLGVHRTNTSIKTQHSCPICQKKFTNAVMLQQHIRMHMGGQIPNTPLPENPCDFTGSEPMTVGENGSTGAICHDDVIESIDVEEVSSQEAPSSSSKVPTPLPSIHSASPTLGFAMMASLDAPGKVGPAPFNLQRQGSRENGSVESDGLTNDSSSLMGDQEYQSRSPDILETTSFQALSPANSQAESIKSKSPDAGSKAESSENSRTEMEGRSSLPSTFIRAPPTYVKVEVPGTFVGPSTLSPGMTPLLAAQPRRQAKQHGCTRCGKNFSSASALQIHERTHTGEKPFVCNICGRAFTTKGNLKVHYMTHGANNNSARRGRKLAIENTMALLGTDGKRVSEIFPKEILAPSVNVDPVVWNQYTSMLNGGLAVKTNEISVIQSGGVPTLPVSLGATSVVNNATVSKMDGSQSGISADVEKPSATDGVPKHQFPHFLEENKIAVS
Method: universal PBM
Form: double-stranded DNA, one strand shown
Matrix: in vitro
Tested at: 600 nM
Notes: 8-mer, flanks averaged, mean of replicates
Reading: higher = stronger binding
| Oligonucleotide | E-score |
| --- | --- |
| TCTGTGAA | 0.171 |
| AACGCCGG | -0.304 |
| CAAACGAG | -0.0565 |
| ATACCCAT | 0.142 |
| GGCGCATA | 0.00429 |
| GTGCCCTA | -0.216 |
| ACCACTCT | -0.2 |
| GGCGTGAA | -0.0858 |
| CCGCCCAC | -0.249 |
| ACGGGCGC | -0.27 |
| AAAGTGCA | 0.0742 |
| CATCAATG | 0.0619 |
| TTAAATAA | 0.341 |
| ACTTTAAT | 0.264 |
| CGCCCACA | -0.14 |
| CGGATATC | 0.0344 |
| CATCCACC | -0.0883 |
| CAACACAA | 0.146 |
| TGAACTCA | 0.019 |
| CACTTAGC | -0.176 |
| ACTCTTTG | 0.101 |
| AGACAGGC | -0.232 |
| CTCTACAA | 0.076 |
| CCAACTAA | 0.0786 |
| CCTCGAGG | -0.149 |

Series 4
Target: RNA binding protein fox-1 homolog 2, RRM domain, GST-SBP tag (RBFOX2, Homo sapiens, UniProt O43251-10, residues 100-194)
Method: RNA Bind-n-Seq
Form: RNA
Matrix: in vitro
Tested at: 365 nM
Notes: natural RNA segment, single round, ends assumed
Baseline: no-protein control
Reading: higher = stronger binding
Constant ends, left off below: GGGAGUUCUACAGUCCGACGAUC … UGGAAUUCUCGGGUGCCAA
Target sequence (chain): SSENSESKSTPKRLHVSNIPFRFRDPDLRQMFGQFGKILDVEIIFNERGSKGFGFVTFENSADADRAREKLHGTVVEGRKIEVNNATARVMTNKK
| Oligonucleotide | RBNS enrichment (R) |
| --- | --- |
| CAUUUAUACUGUCUGUUCUGUACAGUUCUCUCAGAUAAUGACAAUAGCUUGGGAUUUUUUUUUUUUUUAAUGUAGAAAAACCCUGUAGAACCAGUGCUUUGGCCACUUUC | 1.11 |
| CUGGGUAAGGAGCAGUUGCUGGGUCAUUCCUUGGGCCCCGACCUGCCCGGGGAGUAGCCCUGGGGGAGAGAGGGCAGUGUUGCCUAUCCCAGAGGUCCCAGCAGUCACAC | 0.451 |
| UUUAUGGAAAAUGUUGUCCUGUACUUACUAGGCAAAACGUAUGAAUCGGAUUAACUGGAAAAUAUAUCUGAAUUCAACUGCUGACUAUAAAUGGUAUUCUAAUAAAAUUG | 0.444 |
| CCACAACAGCAUGUAAUUUUAGCCAAGAUAUGUCCUGUUACUAAGUAUCUCCCAAUGCUUUAGUAAAACGUAUUUAGGAGAAAUGUUGAAAAUGUACAUGAAGCUCCUUU | 11.3 |
| AGUGGUCUCAUGGCGUGUGGCACAACCCCCCUCCCCAGGGCUCAGCUUAAUGUGCCCUCUCCCCCCAACAACCUGCAGGUUCACAGCACCAGCCACACAGCGGUAGGGAU | 0.467 |
| UCCUGGGAAAGGGGCCGCUGCUGUCUGGUGCCCUGUGAGCUGUGAUUGAUUGCCUUUGGUCAGUAAUGCGUUCAGGAGUCCACACCAGGCACAGAUGGGGCCUUGAAACG | 0.968 |
| UAGGGGGUGAAGUGAGCCAGCUUGCACCUCAGGCUAACACAUAGGACUUUGCUCAGCCAUGUCCCCUGGGAUACAGGGGCACACCAGGACCAAGUGGCAGACCUGUGGGC | 0.483 |
| AAAAGUAAUUUAUUCUGUCAAGAAAUUAAAAAUAGGCUUUGUGUAUGGUUAAACUGUAAAUCUUAUGUUUACAAAAAUACUGUAAUCUUCAGGAAAUCACUGUAUUAGGA | 0.41 |
| GGUUUUUUGAGAUGAAGCAUUUGUUACAGAUAAUUGGGUAGAGUGGAGUGUAUCUGCUUAAGGGGUGAAGUUUGUUUUUUCUUGUCUCUGAAAACUAAGCCCUCAAUGAA | 2.92 |
| CAGGAGGCCGGCCCUGUUCUCUGUACUCAGCAUUUUGACAUCUCCUUUGAAGGCCAGGUAUAUGUGUACCAGUGCUCUUCAAAGGGAGAACCAUUAAAACCAACAUGGAA | 1.22 |
| GGUGAAGAGUUGCAAACCCCUCUGUCCCUGCAGUACUGCCUGAGUGUGUGGUGAUUCUGGGCUCUCCACAACCAGCUCAAAGCAGCUAGCACCCGUGCUCACUGUUGUUG | 0.535 |
| AAACUUCGUCCUCUGAAAUGCUUUUCUGUACUAAACUAACUUGAACGUGACCUAGAAACCAAGAGAUACUGCUUCAUGUGUGGUCUUUAUUGGGCCACAGGAGGGUCAAU | 0.315 |

Some of these lines once more (series 1):
| Oligonucleotide | E-score |
| --- | --- |
| GACATAAA | -0.0982 |
| AACGTTCC | -0.252 |
| AAAGATCA | 0.0747 |
| CAATCCGC | 0.116 |
| CTAGTACC | -0.108 |
| ATGACGTA | -0.0524 |
| AAGTGACT | -0.181 |
